Results gathered from unrelated publications.
Compare with care: the assays were run in different laboratories. Several values in a cell are separate wells, animals, samples, runs or records. ± gives the spread as reported.

`C[n+]1ccc(/C=N/NC(=O)C(=O)N/N=C/c2cc[n+](C)cc2)cc1` gave a ΔTm of 1.6 ± 0.7 °C (telomeric G4 DNA hybrid-2; FRET melting; 1 µM, DNA 0.2 µM, with: duplex DNA competitor 10 µM).
`C=C(NC(=O)c1csc(-c2nc3c(cc2O)-c2nc(cs2)C(=O)NC(C(C)O)C(=O)NC(=C(C)OC)c2nc(cs2)C(=O)NC2c4nc(cs4)C(=O)NC(COC(=O)c4c5c6c(cccc6n4O)COC(=O)C(OC4CC(C)(O)C(N(C)C)C(C)O4)C2OC5)c2nc-3cs2)n1)C(N)=O` (centres unmarked) gave a bacterial load of 3.55 log CFU/g (Streptococcus pneumoniae; -25, immunocompromised mice, lung infection, lung; 8 mg/kg/day three times daily, 24 h post-dose).
`COC1CN([C@H]2CC[C@H]([C@@]3(C)Oc4c(Cl)cc(C(=O)NCc5c(SC)cc(C)[nH]c5=O)c(C)c4O3)CC2)C1` — result for “log2 fold change”: 1.27 (RNA-seq, refers to: DNAJB5 mouse homolog; mouse, HT-1376 xenograft, whole blood; dose not given; baseline: vehicle).
`COCCOCCOCCNC(=O)Cc1cc(CC(=O)N[C@H]2C[C@H]3C(=O)Nc4cc(OCCOCCOCCOC)cc(n4)C(=O)N4CCC[C@H]4C(=O)Nc4cc(OCCOCCOCCOC)cc(n4)C(=O)N4CCC[C@H]4C(=O)Nc4cc(OCCOCCOCCOC)cc(n4)C(=O)N3C2)cc(CC(=O)N[C@H]2C[C@H]3C(=O)Nc4cc(OCCOCCOCCOC)cc(n4)C(=O)N4CCC[C@H]4C(=O)Nc4cc(OCCOCCOCCOC)cc(n4)C(=O)N4CCC[C@H]4C(=O)Nc4cc(OCCOCCOCCOC)cc(n4)C(=O)N3C2)c1` has a ΔH of 3.6 ± 0.1 kJ mol^–1 (anion binding, ITC; water; 298 K, with: sodium bromide).
The relative co-enrichment of `C=CC(=O)N1[C@@H](c2ccc3c(c2)OCO3)c2[nH]c3ccccc3c2C[C@H]1C(=O)N1CCN(C)CC1` is reported as 106% (human cyclin E1 wild type-3xFLAG:CDK2; co-IP with TMT proteomics, refers to: BCLAF1; concentration not given, Q9NYF8; baseline: wild type DMSO).
`[Cl-].[Cl-].[Ru+2].c1cc(-c2ccc3cccnc3n2)nc(-c2ccc3cccnc3n2)c1.c1ccc2cc3nc4c5cccnc5c5ncccc5c4nc3cc2c1` has an EC50 of 50.3 µM (B16-F10; resazurin; with: light 633 nm, 20 mW, 100 J/cm2).
`O=C(N/N=C/c1cc[n+](Cc2ccccc2)c2ccccc12)c1ccc2ccc3ccc(C(=O)N/N=C/c4cc[n+](Cc5ccccc5)c5ccccc45)nc3c2n1` has a ΔTm of 29 ± 0.8 °C (telomeric G4 DNA hybrid-2; FRET melting; 1 µM, DNA 0.2 µM, with: duplex DNA competitor 10 µM).
With `Nc1ncc(-c2cc(-c3cnn(CC(F)(F)F)c3)ncc2F)nc1C(=O)NC1CNCC(F)C1` (centres unmarked) the remaining binding was 44% (CSNK1G3; KINOMEscan; 1 µM; baseline: DMSO control).
For `C[n+]1cc(/C=N/NC(=O)c2cccc(C(=O)N/N=C/c3cc4ccccc4[n+](C)c3)c2)cc2ccccc21`, the ΔTm was 14.4 ± 0.8 °C (telomeric G4 DNA hybrid-2; FRET melting; 1 µM, DNA 0.2 µM).
`CC(C)(C)NCC(SS(=O)(=O)O)c1ccccc1` (centres unmarked) has a spleen weight of 0.17 g and 0.245 g and 0.24 g and 0.2 g and 0.37 g (Schistosoma mansoni; Swiss Webster mouse, infected; oral, 200 mg/kg daily x4, 57 days p.i., dosed from day 7 p.i.).
`C[n+]1cc(/C=N/NC(=O)c2ccc3ccc(C(=O)N/N=C/c4cc5ccccc5[n+](C)c4)nc3n2)cc2ccccc21` gave a ΔTm of 15.4 ± 0.6 °C (telomeric G4 DNA hybrid-2; FRET melting; 1 µM, DNA 0.2 µM, with: duplex DNA competitor 10 µM).
`CC(=O)[O-].O.O.O.O.[Mn+2].[O-]c1ccc(Br)cc1C=NCCN1CCOCC1` — result for “ferric reducing power”: 22.9% (FRAP; 120 µM).
Under “percent of control”, `C=CC(=O)Nc1cccc(Cn2ncc3cnc(Nc4cnn(CCOC)c4)nc32)c1` is recorded as 100% (PRKX human; binding, KINOMEscan; 100 nM; lower = stronger binding).
With `O=C(N/N=C/c1cc[n+](CC2CC2)c2ccccc12)c1ccc2ccc3ccc(C(=O)N/N=C/c4cc[n+](CC5CC5)c5ccccc45)nc3c2n1` the ΔTm was 29.4 ± 0.6 °C (telomeric G4 DNA hybrid-2; FRET melting; 1 µM, DNA 0.2 µM, with: duplex DNA competitor 10 µM).
`Cc1ncsc1-c1ccc(C(C)NC(=O)C2CC(O)CN2C(=O)C(NC(=O)CCCCCCCCCCN2CCCC(Nc3ncc(Cl)c(Nc4ccccc4S(=O)(=O)C(C)C)n3)C2)C(C)(C)C)cc1` (centres unmarked) — result for “log2 fold change”: -2.89 (22Rv1; RNA-seq, refers to: ZNF81 mRNA; concentration not given; baseline: DMSO).
For `CNS(=O)(=O)Nc1nccc(Cc2c(C)c3ccc(Oc4ncccc4F)cc3oc2=O)c1F`, the IC50 was greater than 1 µM (NCI-H1876; cell viability, CellTiter-Glo; 7 days).
For `COc1cc(O)ccc1CCC(c1ccc(O)cc1)c1cc2c(c(C)c1O)OC(c1ccc(O)cc1)CC2` (mixture of isomers), the amount was 75100 ± 16700 pg/mL blood (refers to: eicosapentaenoic acid; human whole blood; 0.3 µM, with: Escherichia coli).
For `N=C(N)NCCC[C@@H]1NC(=O)[C@H](CCCNC(=N)N)NC(=O)[C@@H](C(c2ccccc2)c2ccccc2)NC(=O)[C@H](Cc2c[nH]c3ccccc23)NC(=O)[C@@H](C(c2ccccc2)c2ccccc2)NC(=O)[C@@H](CCCNC(=N)N)NC(=O)[C@@H](CCCNC(=N)N)NC1=O`, the biofilm reduction was 69 to 73% (Aspergillus fumigatus; XTT; Af 293; 2 × MIC, 24 h, pre-formed biofilm).
`CC(C)c1ccc(N(C)c2ccc3c(c2)OCC[C@H]3CNc2cnccc2C(=O)O)cc1` gave an IC50 of no less than 10 µM (SW1271; cell growth or viability, ATP luminescence; 7 days).
With `C[n+]1ccc(/C=N/NC(=O)N/N=C/c2cc[n+](C)cc2)cc1` the ΔTm was 2.7 ± 3 °C (telomeric G4 DNA hybrid-2; FRET melting; 1 µM, DNA 0.2 µM).
The phototoxicity index of `CC(C)(C)c1cc(-c2ccc3cccnc3n2)nc(-c2ccc3cccnc3n2)c1.[Cl-].[Cl-].[Ru+2].c1cnc2c(c1)ccc1cccnc12` is reported as 1 (B16-F10; resazurin; with: light 733 nm, 100 J/cm2; baseline: dark EC50 over light EC50).
With `CC[n+]1cccc2cc(/C=N/NC(=O)c3cncc(C(=O)N/N=C/c4ccc5c(ccc[n+]5CC)c4)n3)ccc21` the ΔTm was 20.3 ± 0.8 °C (telomeric G4 DNA hybrid-2; FRET melting; 1 µM, DNA 0.2 µM, with: duplex DNA competitor 10 µM).
For `COc1ccc(C(=O)CCc2cc(C(CCc3ccc(O)cc3OC)c3ccc(O)cc3)c(O)cc2OC)cc1` (racemic), the LTB4 level was 3810 ± 1280 pg/mL (human blood; 3 µM, with: A23187).
`O=C(N/N=C/c1ccc2c(ccc[n+]2Cc2ccccc2)c1)C(=O)N/N=C/c1ccc2c(ccc[n+]2Cc2ccccc2)c1` has a ΔTm of 8.1 ± 0.9 °C (telomeric G4 DNA hybrid-2; FRET melting; 1 µM, DNA 0.2 µM).
Under “log2 fold change”, `Cn1ncc2cc(-c3cncc(Cl)c3N3CCC4(CCNC4=O)CC3)ccc21` is recorded as 1.46 (LS174T; gene expression, microarray, refers to: CCL20 mRNA; concentration not given, 4 h; baseline: untreated cells).
`CN1CCCNC(=O)c2cccc(c2)C(=O)NCCCN(C)CCCNc2cccc3c2C(=O)c2cccc(c2C3=O)NCCC1` — result for “log2 fold change”: -0.573 (SAS; RNA-Seq, refers to: PREB mRNA; 1 µM, 6 h; baseline: untreated cells).

Some of these lines once more:
`CC(=O)[O-].O.O.O.O.[Mn+2].[O-]c1ccc(Br)cc1C=NCCN1CCOCC1` — result for “ferric reducing power”: 22.9% (FRAP; 120 µM).
For `CNS(=O)(=O)Nc1nccc(Cc2c(C)c3ccc(Oc4ncccc4F)cc3oc2=O)c1F`, the IC50 was greater than 1 µM (NCI-H1876; cell viability, CellTiter-Glo; 7 days).
